# Experimental data collected from several papers.
# Protocols differ between the studies behind these lines.
# CTSL: Procathepsin L (CTSL, Homo sapiens, UniProt P07711)
# Chain of UniProt P07711 (whole entry, looked up): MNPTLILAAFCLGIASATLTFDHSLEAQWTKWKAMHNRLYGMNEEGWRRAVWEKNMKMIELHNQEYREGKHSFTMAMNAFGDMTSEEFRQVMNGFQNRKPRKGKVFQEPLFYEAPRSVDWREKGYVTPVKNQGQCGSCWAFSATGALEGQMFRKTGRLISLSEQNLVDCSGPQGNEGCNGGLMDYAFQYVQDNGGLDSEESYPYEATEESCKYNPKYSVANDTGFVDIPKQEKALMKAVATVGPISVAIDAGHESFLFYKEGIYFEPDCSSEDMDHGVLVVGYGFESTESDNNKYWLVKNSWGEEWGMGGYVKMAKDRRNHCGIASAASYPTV
# Chain of UniProt Q00535 (whole entry, looked up): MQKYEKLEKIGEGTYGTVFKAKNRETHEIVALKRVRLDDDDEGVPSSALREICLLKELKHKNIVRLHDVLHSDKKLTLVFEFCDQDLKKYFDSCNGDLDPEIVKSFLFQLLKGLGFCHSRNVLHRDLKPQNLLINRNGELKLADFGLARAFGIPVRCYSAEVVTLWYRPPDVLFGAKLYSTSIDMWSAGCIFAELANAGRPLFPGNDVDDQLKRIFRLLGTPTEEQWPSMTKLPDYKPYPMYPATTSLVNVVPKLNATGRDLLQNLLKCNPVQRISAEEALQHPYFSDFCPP
# Chain of UniProt Q8IU80 (whole entry, looked up): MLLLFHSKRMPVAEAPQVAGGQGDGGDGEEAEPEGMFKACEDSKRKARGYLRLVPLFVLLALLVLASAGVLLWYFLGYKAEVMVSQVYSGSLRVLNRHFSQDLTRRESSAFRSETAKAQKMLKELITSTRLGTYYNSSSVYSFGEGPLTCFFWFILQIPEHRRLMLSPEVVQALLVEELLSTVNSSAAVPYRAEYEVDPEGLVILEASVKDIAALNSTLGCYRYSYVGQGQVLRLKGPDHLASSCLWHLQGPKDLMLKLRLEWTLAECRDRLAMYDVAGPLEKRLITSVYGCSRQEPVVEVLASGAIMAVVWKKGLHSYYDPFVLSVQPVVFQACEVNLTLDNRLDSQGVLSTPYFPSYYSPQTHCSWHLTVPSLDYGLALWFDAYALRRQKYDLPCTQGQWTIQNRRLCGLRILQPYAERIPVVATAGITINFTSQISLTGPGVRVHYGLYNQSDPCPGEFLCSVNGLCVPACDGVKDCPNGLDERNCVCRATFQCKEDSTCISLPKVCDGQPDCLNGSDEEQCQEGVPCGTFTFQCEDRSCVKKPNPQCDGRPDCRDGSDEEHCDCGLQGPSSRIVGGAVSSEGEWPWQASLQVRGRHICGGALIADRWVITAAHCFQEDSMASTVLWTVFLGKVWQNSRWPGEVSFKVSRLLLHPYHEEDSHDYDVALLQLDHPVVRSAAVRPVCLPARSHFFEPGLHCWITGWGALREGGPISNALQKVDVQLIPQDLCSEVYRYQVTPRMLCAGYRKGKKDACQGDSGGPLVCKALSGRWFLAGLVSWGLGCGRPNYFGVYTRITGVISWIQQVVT
# Chain of UniProt Q9UL54 (whole entry, looked up): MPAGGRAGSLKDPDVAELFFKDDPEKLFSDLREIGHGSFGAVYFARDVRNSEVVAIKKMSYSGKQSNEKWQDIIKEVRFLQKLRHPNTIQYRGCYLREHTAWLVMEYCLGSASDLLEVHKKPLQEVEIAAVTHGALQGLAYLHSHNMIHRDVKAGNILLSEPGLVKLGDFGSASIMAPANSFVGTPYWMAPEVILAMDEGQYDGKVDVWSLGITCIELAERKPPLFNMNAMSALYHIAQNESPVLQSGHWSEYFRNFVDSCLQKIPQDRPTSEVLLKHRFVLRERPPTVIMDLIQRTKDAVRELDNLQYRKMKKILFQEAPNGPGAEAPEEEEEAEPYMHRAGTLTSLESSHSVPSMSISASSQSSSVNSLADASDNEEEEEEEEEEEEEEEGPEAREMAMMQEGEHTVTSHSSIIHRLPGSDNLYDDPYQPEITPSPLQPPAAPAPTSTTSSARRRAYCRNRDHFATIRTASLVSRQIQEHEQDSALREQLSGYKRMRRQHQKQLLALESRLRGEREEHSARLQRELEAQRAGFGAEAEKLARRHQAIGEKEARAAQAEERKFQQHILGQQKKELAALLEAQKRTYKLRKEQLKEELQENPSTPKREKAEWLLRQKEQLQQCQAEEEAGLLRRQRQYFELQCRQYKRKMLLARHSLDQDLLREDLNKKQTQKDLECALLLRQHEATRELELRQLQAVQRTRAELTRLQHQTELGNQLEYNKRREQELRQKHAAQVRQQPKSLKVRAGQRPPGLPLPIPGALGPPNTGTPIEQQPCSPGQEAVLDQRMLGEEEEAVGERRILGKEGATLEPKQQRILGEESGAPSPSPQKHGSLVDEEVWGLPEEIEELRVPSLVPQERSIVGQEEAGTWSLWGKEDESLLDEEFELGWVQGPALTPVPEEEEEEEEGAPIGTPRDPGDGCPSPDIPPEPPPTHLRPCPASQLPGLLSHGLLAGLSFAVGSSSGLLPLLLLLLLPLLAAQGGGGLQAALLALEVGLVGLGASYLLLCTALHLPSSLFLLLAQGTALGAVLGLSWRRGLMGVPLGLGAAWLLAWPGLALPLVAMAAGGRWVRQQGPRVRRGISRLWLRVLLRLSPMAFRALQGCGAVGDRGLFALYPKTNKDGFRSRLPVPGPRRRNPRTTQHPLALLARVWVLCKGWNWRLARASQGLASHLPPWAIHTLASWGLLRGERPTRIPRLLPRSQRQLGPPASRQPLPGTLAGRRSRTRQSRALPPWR
# Chain of UniProt P05164 (whole entry, looked up): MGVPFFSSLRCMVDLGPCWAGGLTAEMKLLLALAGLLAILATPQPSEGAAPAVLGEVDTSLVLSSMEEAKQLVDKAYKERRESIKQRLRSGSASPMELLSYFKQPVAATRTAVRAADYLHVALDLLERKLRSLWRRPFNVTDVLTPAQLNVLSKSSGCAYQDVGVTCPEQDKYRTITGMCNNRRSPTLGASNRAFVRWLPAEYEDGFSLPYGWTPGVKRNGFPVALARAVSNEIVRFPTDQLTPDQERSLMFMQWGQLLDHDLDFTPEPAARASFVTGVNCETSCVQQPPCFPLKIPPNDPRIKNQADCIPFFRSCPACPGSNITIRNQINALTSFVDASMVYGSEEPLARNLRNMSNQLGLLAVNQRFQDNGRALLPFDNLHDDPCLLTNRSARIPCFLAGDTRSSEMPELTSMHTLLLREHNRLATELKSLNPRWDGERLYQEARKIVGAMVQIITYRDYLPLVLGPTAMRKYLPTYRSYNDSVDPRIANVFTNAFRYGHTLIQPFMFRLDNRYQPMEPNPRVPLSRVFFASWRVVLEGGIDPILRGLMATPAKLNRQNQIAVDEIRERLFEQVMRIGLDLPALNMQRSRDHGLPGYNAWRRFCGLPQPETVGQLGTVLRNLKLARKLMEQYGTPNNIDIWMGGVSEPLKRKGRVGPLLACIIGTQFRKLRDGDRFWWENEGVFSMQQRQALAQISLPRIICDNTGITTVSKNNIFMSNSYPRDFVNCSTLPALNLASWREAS
# Chain of UniProt P36896 (whole entry, looked up): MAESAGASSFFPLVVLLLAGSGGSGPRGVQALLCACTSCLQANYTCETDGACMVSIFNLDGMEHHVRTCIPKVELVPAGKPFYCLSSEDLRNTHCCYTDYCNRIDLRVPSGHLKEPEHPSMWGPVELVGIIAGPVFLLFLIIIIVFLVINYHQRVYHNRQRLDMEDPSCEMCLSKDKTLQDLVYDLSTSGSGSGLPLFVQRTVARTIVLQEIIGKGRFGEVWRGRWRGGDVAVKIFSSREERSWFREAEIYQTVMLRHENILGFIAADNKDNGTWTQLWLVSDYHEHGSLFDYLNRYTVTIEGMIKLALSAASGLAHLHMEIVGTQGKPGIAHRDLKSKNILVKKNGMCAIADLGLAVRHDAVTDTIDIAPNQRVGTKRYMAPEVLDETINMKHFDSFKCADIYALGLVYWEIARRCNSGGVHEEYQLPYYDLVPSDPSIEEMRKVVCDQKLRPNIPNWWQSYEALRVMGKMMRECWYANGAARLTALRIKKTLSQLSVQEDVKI
# Chain of UniProt P24723 (whole entry, looked up): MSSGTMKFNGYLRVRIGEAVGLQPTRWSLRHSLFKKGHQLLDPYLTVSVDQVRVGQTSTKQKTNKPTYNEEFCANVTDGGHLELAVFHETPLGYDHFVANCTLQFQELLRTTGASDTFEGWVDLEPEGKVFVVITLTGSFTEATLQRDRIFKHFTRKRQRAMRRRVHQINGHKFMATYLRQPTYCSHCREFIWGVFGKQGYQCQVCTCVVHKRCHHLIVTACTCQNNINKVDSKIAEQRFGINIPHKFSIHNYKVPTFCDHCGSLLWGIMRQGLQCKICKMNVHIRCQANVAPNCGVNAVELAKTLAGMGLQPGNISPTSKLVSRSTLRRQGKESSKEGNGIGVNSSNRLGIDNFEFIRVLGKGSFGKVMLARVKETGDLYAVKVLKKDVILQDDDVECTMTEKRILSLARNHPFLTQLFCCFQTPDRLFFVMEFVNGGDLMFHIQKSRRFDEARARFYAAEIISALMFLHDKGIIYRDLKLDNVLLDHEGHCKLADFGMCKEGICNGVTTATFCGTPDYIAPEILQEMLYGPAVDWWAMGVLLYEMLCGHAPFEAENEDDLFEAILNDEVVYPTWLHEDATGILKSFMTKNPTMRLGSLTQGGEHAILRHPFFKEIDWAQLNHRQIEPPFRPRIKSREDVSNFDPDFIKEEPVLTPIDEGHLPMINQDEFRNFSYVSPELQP
# Chain of UniProt O15264 (whole entry, looked up): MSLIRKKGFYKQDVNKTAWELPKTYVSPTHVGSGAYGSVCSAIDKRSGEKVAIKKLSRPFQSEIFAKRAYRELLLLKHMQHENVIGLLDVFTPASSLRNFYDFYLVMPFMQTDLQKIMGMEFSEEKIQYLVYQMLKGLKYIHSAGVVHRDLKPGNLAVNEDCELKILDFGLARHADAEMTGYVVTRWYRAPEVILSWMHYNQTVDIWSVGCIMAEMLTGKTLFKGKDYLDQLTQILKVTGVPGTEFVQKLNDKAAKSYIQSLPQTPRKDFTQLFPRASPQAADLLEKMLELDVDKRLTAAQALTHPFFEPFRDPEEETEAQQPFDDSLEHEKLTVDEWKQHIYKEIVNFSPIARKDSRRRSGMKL
Structure (SMILES),target,test,conditions,measurement,result
O=C1Nc2cc(O)ccc2C1=O,CTSL,"enzyme activity, inhibitor",100 µM,remaining activity,83.7%
CNc1ncc2c(/C=C/C(=O)N3CCC(OC)CC3)nn(Cc3cccc(C(F)(F)F)c3)c2n1,"CDC42BPB (Homo sapiens, UniProt Q9Y5S2)","enzyme activity, inhibitor, radiometric",1 µM,remaining activity,86%
Nc1ncnc2occ(-c3ccc(NC(=O)Nc4cc(C(F)(F)F)ccc4F)cc3)c12,"EGFR (Homo sapiens, UniProt P00533, del752-759)",cell-free assay,20 µM,remaining signal,58%
CCCCC(=O)Nc1ccc(-c2ccc3ncn(CCC)c(=O)c3c2)cn1,"PRKCH (Homo sapiens, UniProt P24723)","binding, competition with immobilised ligand",0.5 µM,remaining binding,80%
COc1cc(O)c(C(=O)/C=C/c2ccccc2)c(OC)c1,CTSL,"enzyme activity, inhibitor",100 µM,remaining activity,7.19%
NC/C(=C\F)COc1cccc(Cn2c(=S)[nH]c(=O)c3[nH]cnc32)c1,"Myeloperoxidase (MPO, Homo sapiens, UniProt P05164)","enzyme activity, inhibitor",0.156 µM,remaining activity,72.8%
CC[C@H](C)[C@H](NC(=O)[C@H](CCC(N)=O)NC(=O)[C@@H](NC(=O)[C@H](CCSC)NC(=O)[C@H](CCCCN)NC(=O)[C@H](CO)NC(=O)[C@@H](NC(=O)[C@H](CCSC)NC(=O)[C@H](CC(C)C)NC(=O)[C@H](CC(N)=O)NC(=O)[C@@H](NC(=O)[C@@H](NC(=O)[C@H](CO)NC(=O)[C@H](CC(C)C)NC(=O)[C@H](C)NC(=O)[C@H](CCCNC(=N)N)NC(=O)[C@H](CCC(=O)O)NC(=O)[C@H](Cc1ccc(O)cc1)NC(=O)[C@H](Cc1ccccc1)NC(=O)[C@H](C)NC(=O)[C@H](CC(N)=O)NC(=O)[C@@H](N)CCCCN)[C@@H](C)CC)[C@@H](C)CC)[C@@H](C)O)C(C)C)C(=O)N[C@@H](CC(N)=O)C(=O)N[C@H](C(=O)O)C(C)C,"Cyclin-dependent kinase 5, with p25 (CDK5, Homo sapiens, UniProt Q00535)","enzyme activity, inhibitor, radiometric","500 µM, 20 min",remaining activity,15%
COc1cc(-c2cncc3c2CN(C)Cc2cc(N4CCNCC4)ccc2-3)cc(OC)c1OC,"TAOK2 (Homo sapiens, UniProt Q9UL54)","enzyme activity, inhibitor",1 µM,remaining activity,111%
CC[C@H](C)[C@H](NC(=O)[C@H](CCC(N)=O)NC(=O)[C@H](CC(C)C)NC(=O)[C@H](CCSC)NC(=O)[C@H](CCCCN)NC(=O)[C@H](CO)NC(=O)[C@H](CO)NC(=O)[C@H](CCSC)NC(=O)[C@H](CC(C)C)NC(=O)[C@H](CC(N)=O)NC(=O)[C@@H](NC(=O)[C@@H](NC(=O)[C@H](CO)NC(=O)[C@H](CC(C)C)NC(=O)[C@H](CS)NC(=O)[C@H](CCCNC(=N)N)NC(=O)[C@H](CC(=O)O)NC(=O)[C@H](Cc1c[nH]c2ccccc12)NC(=O)[C@H](Cc1ccccc1)NC(=O)[C@H](C)NC(=O)[C@H](CCC(=O)O)NC(=O)[C@@H](N)CCCCN)C(C)C)[C@@H](C)CC)C(=O)N[C@@H](CC(N)=O)C(=O)N[C@@H](C)C(=O)O,"Cyclin-dependent kinase 5, with p35 (CDK5, Homo sapiens, UniProt Q00535)","enzyme activity, inhibitor, radiometric","500 µM, 20 min",remaining activity,24%
C1=C/COCc2cc(ccc2OCCN2CCCC2)Nc2nccc(n2)-c2cccc(c2)COC/1,"KIT (Homo sapiens, UniProt P10721, L576P)",binding,0.1 µM,remaining binding,4.5%
CC(C)(O)[C@H]1CC[C@H](Nc2ccc3ncc(-c4cccc(C(F)(F)F)c4)n3n2)CC1,"MAPK13 (Homo sapiens, UniProt O15264)","enzyme activity, inhibitor",1 µM,remaining activity,96.1%
Oc1ccc(/C=C/c2cc(O)cc(O)c2)cc1,CTSL,"enzyme activity, inhibitor",100 µM,remaining activity,99.1%
C=CC[C@H](NC(=O)[C@H](Cc1cscn1)NC(=O)CCc1ccccc1)C(=O)N[C@@H](CCCNC(=N)N)C(=O)c1nc2ccccc2s1,"Transmembrane protease serine 6 (Homo sapiens, UniProt Q8IU80)","enzyme activity, inhibitor",0.1 µM,remaining activity,33%
C=CC(=O)N1CCC(COCC(=O)N2CCN(c3nc(-c4cnc(N)nc4C(F)F)nc(N4CCOC[C@@H]4C)n3)CC2)CC1,"BRSK2 (Homo sapiens, UniProt Q8IWQ3)","binding, competition with immobilised ligand",1 µM,remaining binding,100%
Cc1cc([C@@H](C)Nc2ccccc2C(=O)O)c2nc(N3CCC(F)(F)CC3)c(C#N)c(=O)n2c1,"ACVR1B (Homo sapiens, UniProt P36896)","binding, competition with immobilised ligand",1 µM,remaining binding,64%

# Repeated from above:
Structure (SMILES),target,test,conditions,measurement,result
CC[C@H](C)[C@H](NC(=O)[C@H](CCC(N)=O)NC(=O)[C@H](CC(C)C)NC(=O)[C@H](CCSC)NC(=O)[C@H](CCCCN)NC(=O)[C@H](CO)NC(=O)[C@H](CO)NC(=O)[C@H](CCSC)NC(=O)[C@H](CC(C)C)NC(=O)[C@H](CC(N)=O)NC(=O)[C@@H](NC(=O)[C@@H](NC(=O)[C@H](CO)NC(=O)[C@H](CC(C)C)NC(=O)[C@H](CS)NC(=O)[C@H](CCCNC(=N)N)NC(=O)[C@H](CC(=O)O)NC(=O)[C@H](Cc1c[nH]c2ccccc12)NC(=O)[C@H](Cc1ccccc1)NC(=O)[C@H](C)NC(=O)[C@H](CCC(=O)O)NC(=O)[C@@H](N)CCCCN)C(C)C)[C@@H](C)CC)C(=O)N[C@@H](CC(N)=O)C(=O)N[C@@H](C)C(=O)O,"Cyclin-dependent kinase 5, with p35 (CDK5, Homo sapiens, UniProt Q00535)","enzyme activity, inhibitor, radiometric","500 µM, 20 min",remaining activity,24%
C1=C/COCc2cc(ccc2OCCN2CCCC2)Nc2nccc(n2)-c2cccc(c2)COC/1,"KIT (Homo sapiens, UniProt P10721, L576P)",binding,0.1 µM,remaining binding,4.5%
